Measurements gathered from unrelated publications.
Parts stem from different laboratories: compare values within a part only. “And” joins repeats or separate records; there may be more than shown.

Set 1
Target: Replicase polyprotein 1ab, main protease (rep, Severe acute respiratory syndrome coronavirus 2, UniProt P0DTD1)
Effect on: enzyme activity
Mode: inhibitor
Concentration: 20 µM
Notes: hit confirmation, with DTT
| SMILES | inhibition |
| --- | --- |
| CN(C)C(=S)SSC(=S)N(C)C | 12.7% |
| Nc1nc(=S)c2ncn([C@@H]3O[C@H](CO)[C@@H](O)[C@H]3O)c2[nH]1 | 99.3% and 12% |
| COc1ccc2[nH]c([S@@+]([O-])Cc3ncc(C)c(OC)c3C)nc2c1 | -9% |

Set 2
Target: Interferon regulatory factor 7, full length, phosphomimetic (IRF7, Homo sapiens, UniProt Q92985, residues 1-503, S471D/S472D/S475D/S476D/S477D/S483D/S484D/S487D)
Method: protein-binding microarray
Form: double-stranded DNA, one strand shown
Matrix: in vitro
Concentration: 2200 nM top
Notes: 60-bp whole probe
Added: salmon DNA 0.4 mg/ml
Relative to: random background probes
Reading: higher = stronger binding
Shared flanks, not repeated: GCCTAGCAC … GTCTTGATTCGCTTGACGCTGCTG
Residues (chain): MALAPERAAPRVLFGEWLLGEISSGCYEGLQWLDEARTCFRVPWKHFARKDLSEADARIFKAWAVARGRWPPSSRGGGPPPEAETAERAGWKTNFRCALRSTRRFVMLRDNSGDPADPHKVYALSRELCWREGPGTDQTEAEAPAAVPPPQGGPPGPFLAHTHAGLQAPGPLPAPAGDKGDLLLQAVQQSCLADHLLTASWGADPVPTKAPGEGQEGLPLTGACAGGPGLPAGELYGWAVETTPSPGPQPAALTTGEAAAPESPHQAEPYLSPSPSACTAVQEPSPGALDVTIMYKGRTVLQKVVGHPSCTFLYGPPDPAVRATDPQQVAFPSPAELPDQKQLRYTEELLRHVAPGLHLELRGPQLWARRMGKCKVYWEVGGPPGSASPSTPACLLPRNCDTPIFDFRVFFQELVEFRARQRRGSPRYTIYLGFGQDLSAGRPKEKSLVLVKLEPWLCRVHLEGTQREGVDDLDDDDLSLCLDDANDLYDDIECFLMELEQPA
| Strand | fitted relative affinity |
| --- | --- |
| TCACCACCCGCTCTGGCACTGTGCTAG | 0.562 z-score |
| TTAGATTTCAGTTCCTATTAGTGCTAG | 2.1 z-score |
| TTAGTTCTCCTTCTCCTTTAGTGCTAG | 2.15 z-score |
| TCATATATTCATATATAACTGTGCTAG | 0.867 z-score |
| AAGCCAGGACGAGCTCGCCTGTGCTAG | -0.253 z-score |
| TTAGATATCGGGACTGGATTTGTGCTA | -0.0954 z-score |
| GACGGACTGCTACTGCTGAGGTGCTAG | -0.586 z-score |
| TTACGTTTCGGGTATCGGTTAGTGCTA | 6.72 z-score |

Set 3
Target: Replicase polyprotein 1ab, nsp13 helicase (rep, Severe acute respiratory syndrome coronavirus 2, UniProt P0DTD1)
Mode: inhibitor
Concentration: 20 µM
| Structure (SMILES) | inhibition |
| --- | --- |
| CNC(=O)ON(C(C)=O)C(=O)NC | 59.9% |
| C[C@H](N[C@@H](CCc1ccccc1)C(=O)O)C(=O)N1CCC[C@H]1C(=O)O | -2.29% |
| C[n+]1ccc(C(=O)NCc2ccccc2)cc1 | 9.05% |
| Cc1ccc(-c2cn3c4c(sc3n2)CCCC4)cc1 | 6.24% |
| O=C(/C=C/c1ccc(O)c(O)c1)O[C@H](Cc1ccc(O)c(O)c1)C(=O)O | 17.6% |
| COc1cc2c(NC3CCN(C)CC3)nc(N3CCCN(C)CC3)nc2cc1OCCOCCN(C)C | 33.3% |
| COc1ccc(Cl)c(Nc2ncnc3cc(OCC4CCN(C)CC4)c(OC)cc23)c1 | 0.65% |
| CC1(C)O[C@H]2CC(=O)OC[C@]23[C@H]2CC[C@@]4(C)[C@H](c5ccoc5)OC(=O)[C@H]5O[C@]54[C@]2(C)C(=O)C[C@@H]13 | -1.49% |
| C#C[C@]1(O)C=C[C@H]2[C@@H]3CCC4=CC(=O)CC[C@@H]4[C@H]3CC[C@@]21CC | 9.41% |
| NC(=O)CN1CCCC1=O | 2.87% |
| O[C@@H]1CO[C@H]2[C@@H]1OC[C@@H]2O | 2% |
| Cc1ccccc1OCC(O)CO (stereo not shown) | 1.32% |
| O=C(CCNNC(=O)c1ccncc1)NCc1ccccc1 | 13.4% |
| O=C1C2CCN(CC2)C1(CO)CO | 5.47% |
| CCOC(=O)Nc1ccc2c(c1)N(C(=O)CCN1CCOCC1)c1ccccc1S2 | 3.43% |
| CO[C@@H]1[C@H](OC(=O)NC(=O)CCl)CC[C@]2(CO2)[C@H]1[C@@]1(C)O[C@@H]1CC=C(C)C | -0.26% and 3.27% |
| O[C@H]1CC[C@H](Nc2ncc3nc(Nc4c(F)cc(F)cc4F)n([C@H]4CCOC4)c3n2)CC1 | 3.86% |
| CCS(=O)(=O)CCn1c([N+](=O)[O-])cnc1C | 5.17% |
| CC1(C)OC[C@@H](COC(=O)CCc2ccc(OC[C@@H](O)CNCCNC(=O)N3CCOCC3)cc2)O1 | 4.76% |
| CNC(=S)C1(c2ccccn2)CCCS1 (stereo not shown) | 1.24% |
| C[C@]12CC[C@@H]3c4ccc(O)cc4CC[C@H]3[C@@H]1C[C@@H](O)[C@@H]2O | -1.81% |
| CN(C)C(=O)N[C@H]1CC[C@H](CCN2CCN(c3cccc(Cl)c3Cl)CC2)CC1 | 8.77% |
| N[C@@H](C(=O)O)c1ccc(C(=O)O)c(C(=O)O)c1 | -0.53% |
| CC(=O)N1CCC(NC(=O)c2ccc(F)cc2)CC1 | 0.1% |
| Nc1c(CC(=O)O)cccc1C(=O)c1ccccc1 | 5.23% |

Set 4
Target: RNA binding protein fox-1 homolog 2, RRM domain, GST-SBP tag (RBFOX2, Homo sapiens, UniProt O43251-10, residues 100-194)
Method: RNA Bind-n-Seq
Form: RNA
Matrix: in vitro
Concentration: 365 nM
Notes: natural RNA segment, single round, ends assumed
Relative to: no-protein control
Reading: higher = stronger binding
Shared flanks, not repeated: GGGAGUUCUACAGUCCGACGAUC … UGGAAUUCUCGGGUGCCAA
Target sequence (chain): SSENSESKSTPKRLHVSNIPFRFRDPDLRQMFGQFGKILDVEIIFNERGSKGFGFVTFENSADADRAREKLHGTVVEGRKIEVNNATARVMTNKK
| Strand | RBNS enrichment (R) |
| --- | --- |
| CCAAAACACUGCUUGUGAGAAGGAAGAUGGAAGGUAAGUUCUGUCGUUCUUUCCCCAAUCCCCAGGAAUGGACAAGAAGCCAACUUAGAAAGAAGGGUCUCACGUGGCUG | 0.352 |
| AAAAAAAAAAGAAUAGGUAAAUUGACAAGAAAUAUUUAUUGUUUUCCCUUAUUGCCUUAUUGUCCCUGGCCACAAACUGUUCAUCUCUUCUCUAAUGUGUAAGUGGAGCC | 0.499 |
| CCCUCGGACCACAGUGGCUCUGUAUGGCCAGGAACUGGGACUCGAGCUUUCAGAUUCUCAACUAGCCUUGGCAAAACAGCUGUAGGUGGCCUCCCUGACAACAGACACUC | 0.295 |
| CAUAGGUACCCAGGAUAUUGUGUUCGGAGAAAUAGACCGAUGAGCGAAAGCACCACCCUCGAGCUGCCUUGCCUGUCAGCUGCUCCUUCGAGGCCUGUGUCUGGUGGGAG | 4.24 |
| UGCUUUCUCAGUGUGUGUAUGGUCCAUGCCCAGUGCUGGUGACAGGGUGGGUAUCCAUGAUGUGUGCCCAGCCUGGAUGUCAGCUGUGUCCUGUGGGGGCGUGUGUGUAA | 0.932 |
| AUGCUAUGUGUUCAUUUCGUGUGCAAGUUCAGAGUGUAAUAGAUUUACCCAGAGAAGGUGUUUCUAUACAAUGCCCCUACCUAUUUGAAAUUACAUGCUUGCCCAACACA | 0.585 |
| UAACAUUGCUGUCUGUAUGUCGUGUAUGCUAGGUGAUAUCCUCAGUAGGGAUUGACUACUAGACUGUGUGUUUUAUCAAAGUGUGUAAGAAUAAAAACUCACUUGCACGA | 0.601 |
| GCUGGAGGGGGGUGGUGAGCCAGAGGGCAGGAGCAUUUUCUGAGCCCUUUCUUGGUGUGUGGGGGAUCUAUGGCCAUCUCCUACCAUGAGGGAGCUACCCAGCUUCCUGU | 0.654 |

Set 5
Target: Histone acetyltransferase KAT6A, both winged helices, GST fusion (KAT6A, Homo sapiens, UniProt Q92794, residues 1-181)
Method: protein binding microarray
Form: double-stranded DNA, one strand shown
Matrix: in vitro
Concentration: not given
Notes: 8-mer, flanks averaged, mean of 2 arrays, mostly near background
Relative to: not given
Reading: higher = stronger binding
Construct (chain): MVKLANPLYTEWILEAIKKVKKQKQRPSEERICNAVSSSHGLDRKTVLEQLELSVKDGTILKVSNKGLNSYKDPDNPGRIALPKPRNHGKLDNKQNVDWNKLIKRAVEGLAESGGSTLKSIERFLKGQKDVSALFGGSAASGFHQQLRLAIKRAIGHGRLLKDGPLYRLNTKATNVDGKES
| Strand | E-score |
| --- | --- |
| ATGTTTCA | 0.0998 |
| GATGATCC | 0.00265 |
| AACTTAAG | -0.00023 |
| GAATAGTC | -0.0766 |
| CTCCAAAC | -0.0508 |
| AGCGACAG | 0.134 |
| TACCCAAA | -0.151 |
| GAACTATC | -0.132 |

A few entries again (set 5):
| Strand | E-score |
| --- | --- |
| AGCGACAG | 0.134 |
| CTCCAAAC | -0.0508 |
| GAATAGTC | -0.0766 |
| GATGATCC | 0.00265 |
| GAACTATC | -0.132 |
| TACCCAAA | -0.151 |
| AACTTAAG | -0.00023 |
